Assay results from different studies.
Each numbered part is a random draw from the data of one study; scales do not carry over between parts.

Block 1
Target: Fragile X messenger ribonucleoprotein 1, C-terminal low-complexity region (Fmr1, Mus musculus, UniProt P35922)
Method: RNA Bind-n-Seq
Form: RNA
Medium: in vitro
Concentration: 200 nM
Setting: whole 134-nt RNA, ends assumed
With: 150 mM LiCl
Baseline: input library
Reading: higher = stronger binding
Endpoint: log2 enrichment
Library: 7-deaza-guanosine replaces G
All sequences stand within: GGGAGUUCUACAGUCCGACGAUC … UGGAAUUCUCGGGUGUCAAGG
UAACUUUAGAGGAGGAUCUGAUGGAUAUGGCAGUGGACGUGGAUUUGGGGAUGGCUAUAAUGGGUAUGGAGGAGGACCUGGAUGUGGCAA: 0.0123
ACCAUGCAGGUGGGCAUCUUUGGGAAGUGGGGCUAGGGGGGGAUAGGGAGGGGGGUAACACUUUGGGAACAGGUGGUCCCAGGUCGUUUC: 1.23
UCCUGUGCUACACAUCGUAUGUACCGAAUCGGGAAAAAAGGGGAAAAAAGGGAAAAAAGGAAAGUAUUAUGUUACGCCGUUCGGAUCUGC: -0.354
ACCAUGCAGGUGGGCAUCUUUGGGAAAAGGGGCAAGGGGGGGAUAGGGAGGGGGGUAACACUUUGGGAACAGGUGGUCCCAGGUCGUUUC: 1.4
CCUCAAGUCCUGUGCUACACAUCGUAUGUACCGAAUCGGGGCGGGGCGGCGGGAAAGUAUUAUGUUACGCCGUUCGGAUCUGCACUUCCA: -0.724
AGUCCUGUGCUACACAUCGUAUGUACCGAAUCGGUUUUUGGAAAAAAAGGUUUUUGGAAAGUAUUAUGUUACGCCGUUCGGAUCUGCACU: -3.69
CCUGUGCUACACAUCGUAUGUACCGAAUCGGGCCCCCCCGGCCCCCCCGGGCCCCCCCGGGAAAGUAUUAUGUUACGCCGUUCGGAUCUG: 0.752
UUUCUCCAUUGCAGGAAGUUGGCAGUAUCAUCGGAAAGGUAAGACAAUUUCACUUCAACUUCAAUUACCAUUUAGUAAUUCUGGAUUGAA: -1.64
ACCAUGCAGGUGGGCAUCUUUGGGAAGUGGGGCAAGGGGGGGAUAGGGAGGGGGGUAACACUUUGGGAAAAGGUGGUCCCAGGUCGUUUC: 1.4
AGUCCUGUGCUACACAUCGUAUGUACCGAAUCGGUUUUUGGUUUUUGGUUUUUGGGGAAAGUAUUAUGUUACGCCGUUCGGAUCUGCACU: -1.73
CCUGUGCUACACAUCGUAUGUACCGAAUCGGGGAAAGGGGAAAAAAAGGGGAAAAAGGGGAAAGUAUUAUGUUACGCCGUUCGGAUCUGC: 1.12

Block 2
Target: Interferon regulatory factor 5, full length, phosphomimetic (IRF5, Homo sapiens, UniProt Q13568-2, residues 1-514, S451D/S453D/S456D/S462D)
Method: protein-binding microarray
Form: double-stranded DNA, one strand shown
Medium: in vitro
Concentration: 940 nM top
Setting: 60-bp whole probe
With: salmon DNA 0.4 mg/ml
Baseline: random background probes
Reading: higher = stronger binding
Endpoint: fitted relative affinity
All sequences stand within: GCCTAGCAC … GTCTTGATTCGCTTGACGCTGCTG
TCATGGTTGAACATGAAACTGTGCTAG: -0.391 z-score
GACGGTTCCGGTTTCGTGACGTGCTAG: 3.95 z-score
GACGAACAGGGGACTGGAGACGTGCTA: 0.526 z-score
TCAAACATCCCAATGGCACTGTGCTAG: 0.413 z-score
TCAGCTCCCTTTCTCTCTGTGTGCTAG: 1.15 z-score
TTAGGTTTCCTTTCACTTTAGTGCTAG: 3.1 z-score
TTAGATCTCAGTCGCGATTAGTGCTAG: 0.548 z-score
GGCAATTTGAGTCACTGTGTGTGCTAG: -0.506 z-score
TCAACCCTCCCTCTGTAACTGTGCTAG: 0.464 z-score
CTGTGTGTCAGGTTTACTAGGGTGCTA: -0.574 z-score
GACGGTTTCGGGCATCGGGACGTGCTA: 7.38 z-score
TCATCTCGGAGATCTCGAACTGTGCTA: 0.662 z-score
GACGAACTGGTGTATCGAGACGTGCTA: 0.307 z-score
GACGGTTTCCACACTGGGGACGTGCTA: 0.587 z-score
TTAGGTTTCGTTTTCCTTTAGTGCTAG: 10.6 z-score
TTGCCTCTGCTGCTGGCCGCGTGCTAG: -0.705 z-score
TCATTTATGTACTCTCTAACTGTGCTA: 1.06 z-score
GACGGTATCGGGTATCAGGACGTGCTA: 4.57 z-score
GACGGTTTCGACACTGAGGACGTGCTA: 6.91 z-score
CACGATATCGGGTTTCGAGACGTGCTA: 2.52 z-score
GACGGTTTTGGTCTCGGGACGTGCTAG: 3.81 z-score

Block 3
Target: RNA binding protein fox-1 homolog 2, RRM domain, GST-SBP tag (RBFOX2, Homo sapiens, UniProt O43251-10, residues 100-194)
Method: RNA Bind-n-Seq
Form: RNA
Medium: in vitro
Concentration: 365 nM
Setting: natural RNA segment, single round, ends assumed
Baseline: no-protein control
Reading: higher = stronger binding
Endpoint: RBNS enrichment (R)
All sequences stand within: GGGAGUUCUACAGUCCGACGAUC … UGGAAUUCUCGGGUGCCAA
Residues (chain): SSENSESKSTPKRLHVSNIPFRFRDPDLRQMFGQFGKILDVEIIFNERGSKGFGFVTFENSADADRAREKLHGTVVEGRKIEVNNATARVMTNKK
AAUGAAAACCCUGGAUAUUCUGGUCCUGAGUUGUUCAGAUGAGGGAGAGCCAACCUAUAGUUUAACAGCUUAGGUAAGACUCACUCUGCCCAUGCUGGCCAGGGGAACCC: 0.266
UUUUUAUAUUUAAAAUGUUACUUUUCUGUAUGAUGUGCAUGCAAGUUUACCGUAACUUUUCUUAAACUUUUUAGUGCCGUUUCUAGUAUAUUCCUGUAAAUGUCAGUUAC: 62.5
GGGCCCCUUUUCCGAAGCCACUUCCAGGCCAAGGCAGUCGCCAGGGCUUCUUGUCCCCACCUUCUGAACCUUCUUCAAACAGUAGUACAAGCUCCCCUCAGCCAGCCUGC: 0.305
CAGACAGGACAGCUGGACCACAGAGUUUAUUUUUGUAUUUCUUAUUGGGCCUGUACACUCCAGCUCUAAGGGCCAGUAGUUUGAAGCCCUAUAAGUGGUGCCCAGUGUUC: 0.356
CGUUUAGACGUUUAGAGUCCUCUUGGAAAAUAGGGCCGUGCGGGAACGGUUAUGAUUGCCAGCGUUUUGGAUGGCAUUAAACUGGAGUUCAGGGUUGAACAUGUCCUGCU: 0.243
UAUUCAGACCUUCAUGAUCAUCCAUCUGGUGAGCAGAGCUUCAUUUGUAUAUAACACUUUCAGAGCCUUCCCACCCAUAGGUAGUUCUUAAACCAGGUGAAAGAGCAAAG: 0.457
UCUUGUGAUAACCACGCUACUUGCCUUUGCUAGAGCUCUCUGUGGCCAACCCUGGGAAAUGCUAAUCAUGACCUUCACACCAAACAUUCAGAAGUAGGCUGUGUCCCAUC: 0.375
UCAGGAUUCAGUCACCCAAUUUUAACACACCCCAGUGGUACUCCCCGACCCAGGCCCCCAAAUCUGGGCUGUUGUGGAACACCCAUGACUUAAGCCUUUCUCCAAGUCUG: 0.402
GUUGAGUUGGGGGCUUGCUUAUAGUUUCAGAGUUGAGUUUAUUUGCAUGGUGUCAGGCAGGCAGGAUGGUGCCGGAGAAGUAGCUGAGAGAUACAUCCUGAUCUACAGGC: 3.27
UCUAUUAACAGCCGUCUAGAAGCGAUGCUUUAGUGGCCUAACCCAGGGUCAAAUACAGCUCUUUCUAGCAAAAUCAGGCAGCUCUGCCCCAUCGGUAGGGGCACCGAUUA: 0.259
ACAAAGCAUCCCUUAGAAGUCCAUGCUGGGCAGACAUUGAACACAGUGCCUUAUUAUGUUUCUCCCUUGAAUGCUUCAGUGUUUUGAGUCAUACUCUAGAAUGGACUGAC: 0.776
AAAUUGCUUUGUAUUGUAUAUUACAAUGAUCACCGACUGAAAAUAUUGUUUUACAAUAGUUCUGUGGGGCUGUUUUUUUGUUAUUAAACAAAUAAUUUAGAUGGUGGUAA: 0.42

Block 4
Target: Sal-like protein 4, full length isoform A (SALL4, Homo sapiens, UniProt Q9UJQ4, residues 1-1053)
UniProt Q9UJQ4, sequence (whole entry, looked up): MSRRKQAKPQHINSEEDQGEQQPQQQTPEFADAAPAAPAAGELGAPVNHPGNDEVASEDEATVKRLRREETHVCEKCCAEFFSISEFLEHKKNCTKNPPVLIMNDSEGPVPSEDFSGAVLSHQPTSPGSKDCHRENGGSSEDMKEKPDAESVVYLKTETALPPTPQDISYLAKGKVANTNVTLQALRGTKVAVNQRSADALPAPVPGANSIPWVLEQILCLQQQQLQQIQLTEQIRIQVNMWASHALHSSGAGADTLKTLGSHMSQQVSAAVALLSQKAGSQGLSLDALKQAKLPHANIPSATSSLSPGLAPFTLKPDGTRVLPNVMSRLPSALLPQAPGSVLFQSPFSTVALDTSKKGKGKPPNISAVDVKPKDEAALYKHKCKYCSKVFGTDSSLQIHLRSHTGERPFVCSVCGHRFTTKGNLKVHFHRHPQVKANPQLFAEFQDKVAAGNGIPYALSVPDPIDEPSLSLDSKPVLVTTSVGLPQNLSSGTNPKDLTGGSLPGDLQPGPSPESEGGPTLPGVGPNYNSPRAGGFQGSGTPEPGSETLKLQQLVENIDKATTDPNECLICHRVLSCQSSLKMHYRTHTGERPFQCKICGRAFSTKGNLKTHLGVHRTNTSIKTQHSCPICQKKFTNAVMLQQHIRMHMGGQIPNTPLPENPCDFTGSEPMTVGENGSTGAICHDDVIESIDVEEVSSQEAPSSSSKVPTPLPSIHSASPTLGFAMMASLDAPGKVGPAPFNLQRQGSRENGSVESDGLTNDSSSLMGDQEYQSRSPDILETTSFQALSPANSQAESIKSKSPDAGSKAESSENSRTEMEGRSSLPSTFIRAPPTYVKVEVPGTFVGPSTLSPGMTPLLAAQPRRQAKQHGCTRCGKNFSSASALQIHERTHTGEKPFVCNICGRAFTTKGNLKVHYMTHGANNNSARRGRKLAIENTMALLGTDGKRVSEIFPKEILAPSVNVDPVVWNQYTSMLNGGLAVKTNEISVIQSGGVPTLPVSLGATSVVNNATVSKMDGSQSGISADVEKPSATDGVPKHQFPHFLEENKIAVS
Method: universal PBM
Form: double-stranded DNA, one strand shown
Medium: in vitro
Concentration: 600 nM
Setting: 8-mer, flanks averaged, mean of replicates
Reading: higher = stronger binding
Endpoint: E-score
GCGGACGA: -0.282
CAATTTTA: 0.346
GCCTTATA: 0.089
GTCAACTA: 0.194
CTTTAGAA: 0.208
GCTGCTAC: -0.162
CTTGTTAC: 0.185
CGGGGCCC: -0.361
CGCGAATA: 0.179
AGCGAACG: -0.308
CCTCGCAC: -0.218
AGGCTTCA: -0.161
CAGCTAGA: -0.138
ACTTAAGC: 0.0836
ACGTTAGC: 0.0524
GGTAATGA: 0.19
AATGCCCG: -0.231
ACGGTGAC: -0.15
CCTCCACG: -0.179
GTGTTAAC: 0.216
GCCCGGAA: -0.287
GTTTCTTA: 0.106
AACTTTCT: 0.165
AGGCACCA: -0.171
CGCTCACA: -0.174

A few entries again (block 1):
UAACUUUAGAGGAGGAUCUGAUGGAUAUGGCAGUGGACGUGGAUUUGGGGAUGGCUAUAAUGGGUAUGGAGGAGGACCUGGAUGUGGCAA: 0.0123
ACCAUGCAGGUGGGCAUCUUUGGGAAGUGGGGCUAGGGGGGGAUAGGGAGGGGGGUAACACUUUGGGAACAGGUGGUCCCAGGUCGUUUC: 1.23
UCCUGUGCUACACAUCGUAUGUACCGAAUCGGGAAAAAAGGGGAAAAAAGGGAAAAAAGGAAAGUAUUAUGUUACGCCGUUCGGAUCUGC: -0.354
ACCAUGCAGGUGGGCAUCUUUGGGAAAAGGGGCAAGGGGGGGAUAGGGAGGGGGGUAACACUUUGGGAACAGGUGGUCCCAGGUCGUUUC: 1.4
CCUCAAGUCCUGUGCUACACAUCGUAUGUACCGAAUCGGGGCGGGGCGGCGGGAAAGUAUUAUGUUACGCCGUUCGGAUCUGCACUUCCA: -0.724
AGUCCUGUGCUACACAUCGUAUGUACCGAAUCGGUUUUUGGAAAAAAAGGUUUUUGGAAAGUAUUAUGUUACGCCGUUCGGAUCUGCACU: -3.69
CCUGUGCUACACAUCGUAUGUACCGAAUCGGGCCCCCCCGGCCCCCCCGGGCCCCCCCGGGAAAGUAUUAUGUUACGCCGUUCGGAUCUG: 0.752
UUUCUCCAUUGCAGGAAGUUGGCAGUAUCAUCGGAAAGGUAAGACAAUUUCACUUCAACUUCAAUUACCAUUUAGUAAUUCUGGAUUGAA: -1.64
